Measurements of several laboratories.
Several values in a cell are separate wells, animals, samples, runs or records. Numbers after ± are the reported error.
Organism: SARS-CoV-2

Structure (SMILES) | assay | system | setting | scale | measurement | result
CCC1OC(C2(C)CC(C)C(O)(C3(C)CCC(C(O)C4(O)OC(CC5(O)OC(C(C)C(O)CC6CCC(C)C(C(C)C(=O)O)O6)CCC5C)C(C)CC4C)O3)O2)CCC1(C)O (stereo not shown) | Western blot | Vero E6-hTMPRSS2 | concentration not given | – | spike protein formation | inhibited
Brc1c(Br)c(Br)c2[nH]nnc2c1Br | – | Huh-7 | – | reference: CC50 over EC50 | selectivity index | inactive
O=P(O)(OCc1ccncc1)Oc1c2c(c(OP(=O)(O)OCc3ccncc3)c3c1C1CC3c3cc4c(cc31)C1CC4c3ccccc31)C1CC2c2cc3c(cc21)C1CC3c2ccccc21 | spike pseudoparticle entry | Caco-2 | – | – | IC50 | 41.9 µM
CC[C@H](C)[C@@H]1NC(=O)[C@H](Cc2c[nH]c3ccccc23)NC(=O)[C@H](C)NC(=O)[C@H](CC(N)=O)NC(=O)[C@H](Cc2ccc(O)cc2)NC(=O)CNC(=O)[C@H](Cc2ccc(O)cc2)NC(=O)[C@H](C(C)C)NC(=O)[C@H](C(C)C)NC(=O)CNC(=O)[C@H](C)NC(=O)[C@H](CCCCN)NC(=O)[C@@H](Cc2ccc(O)cc2)NC(=O)CSC[C@@H](C(N)=O)NC(=O)[C@H](CCCNC(=N)N)NC1=O | viral replication | Vero E6 | – | – | antiviral activity | > 10 µM
O=C1C(O)=C(Nc2ccc(F)cc2)C(=O)c2ccccc21 | – | Calu-3 and HepG2 | – | reference: HepG2 CC50 over antiviral EC50 | selectivity index | 110 ± 30
Cc1ccc(N2CCN(C)CC2)cc1C(=O)NC1(c2ccc3c4c(cccc24)CC3)CC1 | viral replication | Vero C1008, XBB.1 | 12.5 µM | – | inhibition | 100%
C(=N\Cc1cc(C/N=C/c2cccs2)cc(-c2cc(C/N=C/c3cccs3)cc(C/N=C/c3cccs3)c2)c1)/c1cccs1 | – | mouse, brain | dose not given | – | viral load | decreased
Cc1oc2nc1C(=O)N[C@](C)(C(=O)NCCc1ccccc1)c1nc(c(C)o1)C(=O)N[C@](C)(C(=O)NCCc1ccccc1)c1nc(c(C)o1)C(=O)N[C@]2(C)C(=O)NCCc1ccccc1 | viral adsorption | Vero E6, NRC-03-nhCoV | 5 µM | – | inhibition | 0%
Cc1ccc(N2CC3CC(C2)N3)cc1C(=O)NC1(c2ccc3c4c(cccc24)C(=O)N3C)CC1 | viral replication | Vero C1008, Omicron BA.5 | 0.05144 µM | – | inhibition | 0%
CCCC/C=C/C(=O)N[C@@H](Cc1csc2ccccc12)C(=O)N[C@H]1COC(=O)[C@@H]2C[C@@H](C)CN2C(=O)[C@H](C)NC(=O)[C@@H]2CCCCN2C(=O)[C@@H]2CCCN2C1=O | – | SB2 | concentration not given, 3 h, unit not given | reference: DMSO | viral RNA level | 0.138 and 0.106
Cc1ccc(N2CC(N3CCC(C)(O)CC3)C2)cc1C(=O)NC1(c2ccc3c4c(cccc24)CC3)CC1 | viral replication | Vero C1008, XBB.1 | 0.05144 µM | – | inhibition | 15%
CN1C(CC(=O)c2ccccc2)CCCC1CC(O)c1ccccc1 (stereo not shown) | – | Vero | 83 µM | – | plaque reduction | 81 to 88%
CC(C)CC(C(=O)N1CC2(CC1C#N)C(=O)Nc1ccccc12)N(C)C(=O)c1cc2c(F)cc(F)c(F)c2[nH]1 (stereo not shown) | viral replication, infectious virus | Vero E6 | 1 µM | – | inhibition | 97%
C[C@@H]1O[C@@H](n2c3ccccc3c3c4c(c5c6ccccc6[nH]c5c32)CNC4=O)C[C@@H](N)[C@H]1O | viral replication | mNeonGreen reporter | 50 µM | – | inhibition | 93%
Cc1c(C(=O)N2c3ccccc3NC(=O)C2CC(=O)Nc2ccc(Cl)c(Cl)c2)oc2ccccc12 (stereo not shown) | – | A549-ACE2 | – | reference: CC50 over EC50 | selectivity index | > 10
Cc1oc2nc1C(=O)N[C@](C)(C(=O)OC(C)C)c1nc(c(C)o1)C(=O)N[C@](C)(C(=O)OC(C)C)c1nc(c(C)o1)C(=O)N[C@]2(C)C(=O)OC(C)C | viral replication | Vero E6, NRC-03-nhCoV | 10 µM | – | inhibition | 23%
CCn1ccc(-c2cc(-c3cnn(C)c3)cc([C@@H](C)NC(=O)c3cc(OCCN(C)C)ccc3C)c2)n1 | viral replication | recombinant E167G mutant | – | reference: wild type | EC50 fold change | 6 to 13 fold
Cc1ccc(N2CC(N3CCC(C)(O)CC3)C2)cc1C(=O)NC1(c2ccc3c4c(cccc24)C(=O)N3C)CC1 | viral replication | Vero C1008, wild type | 12.5 µM | – | inhibition | 100%
COC(=O)CC[C@@H](C)C1CCC2C3C(CC[C@@]21C)[C@@]1(C)CC[C@@H](n2cc(CO[C@H]4O[C@@H]5O[C@@]6(C)CCC7[C@H](C)CC[C@@H]([C@H]4C)[C@]75OO6)nn2)CC1C[C@@H]3O (stereo partly shown) | – | Calu-3 | 20 µM, post-infection treatment | reference: untreated | viral load reduction | 4.04 log10
O=P(O)(O)Oc1c2c(c(OP(=O)(O)O)c3c1C1CC3c3cc4c(cc31)C1CC4c3ccccc31)C1CC2c2cc3c(cc21)C1CC3c2ccccc21 | pseudoparticle entry | Caco-2 | – | – | IC50 | 35.5 µM
Oc1ccc(CCCCCCCCC(O)c2c(O)cccc2O)cc1O (stereo not shown) | – | Vero E6/TMPRSS2, WK-521 ancestral | – | reference: CC50 over EC50 | selectivity index | > 7.4
CC[C@H](C)[C@H](NC(=O)CNC(=O)[C@H](CO)NC(=O)CNC(=O)[C@H](CSSC[C@H](NC(C)=O)C(=O)NCC(=O)N[C@@H](CO)C(=O)NCC(=O)N[C@H](C(=O)N[C@@H](CO)C(=O)NCC(=O)N[C@H](C(=O)N[C@@H](CC(N)=O)C(=O)N[C@@H](C)C(=O)N[C@@H](CO)C(=O)N[C@H](C(=O)N[C@H](C(=O)N[C@@H](CCC(=O)O)C(=O)N[C@H](C(=O)N[C@@H](CCC(N)=O)C(=O)N[C@@H](CCCCN)C(=O)N[C@@H](CCC(=O)O)C(=O)N[C@H](C(=O)N[C@@H](CCC(=O)O)C(=O)N[C@@H](CCCNC(=N)N)C(=O)N[C@@H](CC(C)C)C(=O)N[C@@H](CC(N)=O)C(=O)N[C@@H](CCCCN)C(=O)N[C@H](C(=O)N[C@@H](C)C(=O)N[C@@H](CCCCN)C(=O)N[C@@H](CC(N)=O)C(=O)N[C@@H](CC(C)C)C(=O)N[C@@H](CC(N)=O)C(=O)N[C@@H](CCC(=O)O)C(=O)N[C@@H](CO)C(=O)N[C@@H](CC(C)C)C(=O)N[C@H](C(=O)N[C@@H](CC(=O)O)C(=O)N[C@@H](CC(C)C)C(=O)N[C@@H](CCC(N)=O)C(=O)N[C@@H](CCC(=O)O)C(N)=O)[C@@H](C)CC)C(C)C)[C@@H](C)CC)[C@@H](C)CC)C(C)C)C(C)C)[C@@H](C)CC)[C@@H](C)CC)NC(C)=O)C(=O)N[C@@H](CO)C(=O)NCC(=O)N[C@H](C(=O)N[C@@H](CC(N)=O)C(=O)N[C@@H](C)C(=O)N[C@@H](CO)C(=O)N[C@H](C(=O)N[C@H](C(=O)N[C@@H](CCC(=O)O)C(=O)N[C@H](C(=O)N[C@@H](CCC(N)=O)C(=O)N[C@@H](CCCCN)C(=O)N[C@@H](CCC(=O)O)C(=O)N[C@H](C(=O)N[C@@H](CCC(=O)O)C(=O)N[C@@H](CCCNC(=N)N)C(=O)N[C@@H](CC(C)C)C(=O)N[C@@H](CC(N)=O)C(=O)N[C@@H](CCCCN)C(=O)N[C@H](C(=O)N[C@@H](C)C(=O)N[C@@H](CCCCN)C(=O)N[C@@H](CC(N)=O)C(=O)N[C@@H](CC(C)C)C(=O)N[C@@H](CC(N)=O)C(=O)N[C@@H](CCC(=O)O)C(=O)N[C@@H](CO)C(=O)N[C@@H](CC(C)C)C(=O)N[C@H](C(=O)N[C@@H](CC(=O)O)C(=O)N[C@@H](CC(C)C)C(=O)N[C@@H](CCC(N)=O)C(=O)N[C@@H](CCC(=O)O)C(N)=O)[C@@H](C)CC)C(C)C)[C@@H](C)CC)[C@@H](C)CC)C(C)C)C(C)C)[C@@H](C)CC | viral replication | VeroE6/TMPRSS2, ancestral Wuhan | – | reference: compound over corresponding monomer | IC50 ratio | 1.26
CCCCCCCCCCCCCCCCCCOP(=O)(O)Oc1c2c(c(OP(=O)(O)OCCCCCCCCCCCCCCCCCC)c3c1C1CC3c3cc4c(cc31)C1CC4c3ccccc31)C1CC2c2cc3c(cc21)C1CC3c2ccccc21 | spike pseudoparticle entry | Caco-2 | – | – | IC50 | 15.5 µM
Oc1ccc(Br)cc1-c1nc2cc(C(F)(F)F)ccc2s1 | HiBiT luminescence | HeLa replicon | concentration not given, unit not given | reference: DMSO | replicon activity | 0.583 and 0.533 and 0.774 and 0.569 and 0.851
COc1ccc(-c2cnc3[nH]cc(C#Cc4cccnc4)c3c2)cc1OC | – | Calu-3 | 5 µM, 10 h | reference: DMSO | infection reduction | 93 ± 4.1%
Cc1oc2nc1C(=O)N[C@](C)(C(=O)O)c1nc(c(C)o1)C(=O)N[C@](C)(C(=O)O)c1nc(c(C)o1)C(=O)N[C@]2(C)C(=O)O | viral adsorption | Vero E6, NRC-03-nhCoV | 20 µM | – | inhibition | 66%
C#CCC(C)OP(=O)(O)Oc1c2c(c(OP(=O)(O)OC(C)CC#C)c3c1C1CC3c3cc4c(cc31)C1CC4c3ccccc31)C1CC2c2cc3c(cc21)C1CC3c2ccccc21 (stereo not shown) | spike pseudoparticle entry | Caco-2 | – | – | IC50 | 15.2 µM
CC(C)(C)NC(=O)[C@@H](c1cccnc1)N(C(=O)c1ccco1)c1ccc(C(C)(C)C)cc1 | – | Vero C1008 | 1 µM | reference: positive control | viral titre log reduction | 0.00663 log10
